Experimental data from different studies.
Each numbered part is a random draw from the data of one study; scales do not carry over between parts. Substitutions count along the parent as printed.

Block 1 — target: CCND3, cyclin fold, Cln2 fusion (human); technique: yeast growth competition, sequencing; sample: yeast; notes: weak parent motif; reference: not given; reading: higher = stronger binding; endpoint: normalised enrichment score
Starting sequence: RBL2 docking peptide (human); STTRRRLFVENDS
STTRRSLFVENDS [R6S]: 0.0601
STTRGRLFVENDS [R5G]: -0.00231
SGTRRRLFVENDS [T2G]: 0.253
STTRRRLFVENYS [D12Y]: 0.177
STTRRRLFVMNDS [E10M]: 0.216
STTQRRLFVENDS [R4Q]: 0.108
STTRRRLFDENDS [V9D]: 0.0433
FTTRRRLFVENDS [S1F]: 0.0572
SITRRRLFVENDS [T2I]: 0.0254

Block 2 — technique: RNA Bind-n-Seq; form: RNA; sample: in vitro; concentration: 100 nM; reference: input RNA pool; reading: higher = stronger binding; endpoint: bound/input enrichment
Target: RING finger protein unkempt homolog, zinc fingers 1-6, SBP tag (UNK, Homo sapiens, UniProt Q9C0B0, residues 30-357)
Sequence of UniProt Q9C0B0 (30-357, looked up): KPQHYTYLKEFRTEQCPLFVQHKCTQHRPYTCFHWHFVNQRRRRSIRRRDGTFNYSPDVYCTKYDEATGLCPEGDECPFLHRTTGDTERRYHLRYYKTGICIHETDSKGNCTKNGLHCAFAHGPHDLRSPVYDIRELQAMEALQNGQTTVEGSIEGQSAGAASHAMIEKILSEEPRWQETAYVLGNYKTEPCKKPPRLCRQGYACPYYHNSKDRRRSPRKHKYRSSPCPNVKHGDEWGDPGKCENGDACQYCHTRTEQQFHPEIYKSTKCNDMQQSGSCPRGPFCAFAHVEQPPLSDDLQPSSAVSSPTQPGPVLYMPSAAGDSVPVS
Notes: RNA with constant flanks, vertebrate orthologous sites, ends assumed
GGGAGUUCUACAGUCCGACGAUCGGGGGGCAUUCUGCCCGGGGACGCUGGCUGCUUAGCACUGUUUGAUUUGUGACCUUGAUGUAAUAGGUAGGCUUGUGGGUUUUGUUUUUGUUUUUGUUUUAAUUUAAAGACAUUAAGACUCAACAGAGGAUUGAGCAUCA: 0.754 ratio
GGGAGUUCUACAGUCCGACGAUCAAGAACAGGAGCAGCAUAGACUGAGCUUUGGGGAAAUGAGCUUUGCUUUUUAUAUUUAAAUAGGAUACUUUUAUAUGAUGGGUGCUUUGAGUGUGAAUGCAGCAGGCUCUCCAUUUCAGACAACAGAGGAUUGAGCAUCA: 1.43 ratio
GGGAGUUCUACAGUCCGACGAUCGCGGCCGGUGGGGGGUUGUCGCCCACCCUGGCCUUGCCUCCCCUCCCUGCCACCUACCCCUUGUUAUUUUUUUUUAACCACCAUGUGAUUAAGGUCAGCGCUGCCUCCCCCGACCUGCUCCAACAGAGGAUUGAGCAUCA: 1.24 ratio
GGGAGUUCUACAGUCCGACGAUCCUAUCUAGUCUUUUAGGAUCAGCCUCAAAUCUAUAGGAUUUACAACAAAUGUAUUAUAUAAUCUAGUUGAGAUUAAUAUUUUUUUAUUAGCCUGUAAAUAAAGAUGGCAUCUUCUACCUUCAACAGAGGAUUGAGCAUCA: 0.455 ratio
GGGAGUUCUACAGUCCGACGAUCGAUUUGGACCUUGGAGUUGAACCAGGGAGCUAGCAAAAGUAAAGCAGACUUGUAAAAUUAUAGCUAUAUGCAGCUGCACAACACAGUCCUACCACUAGCAGCUGUGUUAAAGUAUUUAUACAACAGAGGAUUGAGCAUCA: 0.682 ratio
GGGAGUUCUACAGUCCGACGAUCCAGUCCCCUGGGCUGGGACAGAUUUUUUUUUAACGUCUUGAAACUUAAAUUCUGUGCUUGUAGGAGACUGUAACCUUUUUGUCUUUUUUUUUUUUUUUACACGAAACAACCUCCACCUCCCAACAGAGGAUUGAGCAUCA: 0.771 ratio
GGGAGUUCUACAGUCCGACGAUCUUAUAUGGGCCUCGCAGAGUUGAAGUAAUUGAAGAAGAAACUUCACAAUAAUCUUCAUCUUAGUAUCUCUGACUAGGUGUGGAAUAAAUGUUGUUCGUUGAUCAUUUCUAAACCCCAGAGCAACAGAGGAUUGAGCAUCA: 0.579 ratio
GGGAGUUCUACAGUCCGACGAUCUUCACUGAGUGACAGUAUACCUUCAGUGGCUGAUUCACACUCAAGCCAUUUUUCAGAGUUCAGUUCGGAUAUGGAGAGUAUGAAGACAUCCUGCAGCCAUGGUUCUAGUGACUACCACGCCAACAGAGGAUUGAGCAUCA: 0.263 ratio
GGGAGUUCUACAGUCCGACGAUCGGGACGCUUUGACAUAAAGCUCACCGUGUCGUGACCUGAGCUACUGCGAGCACUCAAUUUGAAAACGAAUCCAACUUAGAGAAACCCGUUCAGAUAAAAACCACCACUAGUCUUUGAACACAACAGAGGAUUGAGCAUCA: 0.172 ratio
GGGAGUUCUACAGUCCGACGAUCCCUCUUAAUCCCAUCUCUUCAGUUUCAUAGAACUGCAGUAUUACCUUCAAUUGUAUCUUUGGUGGACUUAUUUUUAAUUCUAGGGAAACUUCCAGUGUGGAUACUGUGAGCUAGAUGGAGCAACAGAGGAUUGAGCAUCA: 0.732 ratio
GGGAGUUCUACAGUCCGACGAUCAGAAAAUUUUAACCAGGAAUCUGAAGGUAGACACACAGGACCAUGGUUAUCGUCCUCACUUAGAAAUAGAUGCACACCUUUGUUCUCUAGAAGGAGGAGAGAAGGAAGAGAUGAAUCCUCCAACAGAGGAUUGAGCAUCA: 0.534 ratio

Block 3 — technique: RNA Bind-n-Seq; form: RNA; sample: in vitro; concentration: 365 nM; reference: no-protein control; reading: higher = stronger binding; endpoint: RBNS enrichment (R)
Target: RNA binding protein fox-1 homolog 2, RRM domain, GST-SBP tag (RBFOX2, Homo sapiens, UniProt O43251-10, residues 100-194)
Notes: natural RNA segment, single round, ends assumed
Residues (chain): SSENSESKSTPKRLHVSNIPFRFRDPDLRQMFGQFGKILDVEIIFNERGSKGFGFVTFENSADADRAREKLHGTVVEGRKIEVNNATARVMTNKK
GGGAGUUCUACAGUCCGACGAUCCAGAUCUGUUUCAAAAACAAAUACAAAAAUGAGAAUGAAAAGUUUGCUUAAGACUAAGUCCAGUGUUUUUCAUUUUCCCUUUGGCUGAAUAUUUCAAUUGACAAACCAGCUGGAAUUCUCGGGUGCCAA: 0.538
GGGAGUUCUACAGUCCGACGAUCAGGAGAGCAUCCAGAUCCCUGGGCAGAGGCUCUACAUUCUUGGCUUUAGAGGUGGUGGCAGCGGCAGCAGGUCAGAGCCACUUCUGGCGGUUUCCCUCCCCUUUUUAGUGUGGAAUUCUCGGGUGCCAA: 0.183
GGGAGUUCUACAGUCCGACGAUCAUGCCGAUUUGAGUUCGCGACACUAUGUACUGCGUUUUUCAUUCUUGUAUUUGACUAUUUAAUCCUUUCUACUUGUCGCUAAAUAUAAUUGUUUUAGUCUUAUGGCAUGAUGGAAUUCUCGGGUGCCAA: 0.39
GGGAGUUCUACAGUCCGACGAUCAAAAACAACAACACAAUAACACUAAAAUUUUAGGCACUCUUAAAUGAUCUGCCUCUAAAAGCGUUGGAUGUAGCAUUAUGCAAUUAGGUUUUUCCUUAUUUGCUUCAUUGUGGAAUUCUCGGGUGCCAA: 0.355
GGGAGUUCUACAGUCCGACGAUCGGCUCUAUCUCAGAGGUGCUGCUCUUGCAGGUGACCUGGUUGCAUAGCUAGGAUUAGUAAUUUGUACUGCUUUCUGGUCAUUUGAAGAGCCCUUUAGUUUUGAUGAUAUUUGGAAUUCUCGGGUGCCAA: 0.406
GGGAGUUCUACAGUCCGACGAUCUUUCUCUGUGUAGCCCUGGCCGUCCUGGAACUCACUUUGUAGAUCAGGCUGGCCUCGAACUCAGAAAUCGGCCUGCCUCUGCCUCCCGAGUGCUGGGAUUAAAGGCGUGCUGGAAUUCUCGGGUGCCAA: 0.277
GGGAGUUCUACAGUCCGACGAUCGUCACAACAGGGGGUAGCCCUCAAAAGCACUCCUUUUUCUAUACCUCUUCUCAAGGCCAUGUAAGUUGCCCAUCUCUACCUGGCUGUGGACAAAAGGUUAUCUGCUCUUGUGGAAUUCUCGGGUGCCAA: 0.371
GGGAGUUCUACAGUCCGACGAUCUAAGUUUAUUUUGUCAAAAAUGACAAGGAAAAAGCCAGCUGUUUUCAUAGACCUUUUCAUUAUGAUACUGUAUCUUGCAUAGUUGAAUCUUCUCAUUUAUACAGUGCCUUUGGAAUUCUCGGGUGCCAA: 0.485
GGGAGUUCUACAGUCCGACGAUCCUGACUUGAACUCACAGUCGCCAAGUCUACCUAUCUUUCUUGGAAGCAGUCUUUCAAAAUUCCUACUUGUAUAUUCAUCCAUUGUUGACAAGGACAAAAUCAGUUGUAUUUGGAAUUCUCGGGUGCCAA: 0.606
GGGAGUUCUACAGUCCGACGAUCGUAUGUUUCUAUAUUUUGAAACAGGUAUGUAACUUCUUCAUUUGAAGGAUAAGCUGGUUUGUGUUAAGCAGUAUAAUAUUGAUUGGGUCUUUCGCAUCAUAUUCGUUAGCUGGAAUUCUCGGGUGCCAA: 0.452
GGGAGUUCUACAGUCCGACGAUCGAAGGAGCAAAAAAAGCCACCGCUCGUUUCUAUAAUCCAGCUUUGCUUUUCACAGGCGUGGGAUCCAGGAUGGUGUCCUCUGUGAGGACUUGAACUCUGGGGCUUUAAUUUGGAAUUCUCGGGUGCCAA: 0.365
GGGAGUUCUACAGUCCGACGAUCGCUUUCCGCGUACAGAAGUGCUUGCCCGGGGAGUCCCGCCUGACCUGCCUUCAUGUGGACCCUUAGAACAGCACUGGGAGACCAGCAGGACUCCUGAGAACUGUGCUGGUUGGAAUUCUCGGGUGCCAA: 0.371

Single results of other studies
PhoQ, residues 284 288 289 292 302 303 NLGVHL  fold induction (PhoP, residues 12 14 15 18 19 NMSFL (Escherichia coli, UniProt P23836); Sort-seq, measured: YFP reporter; E. coli; PhoQ-PhoP variant library, together with: 10 µM Mg2+; reference: high Mg2+ state, higher = stronger signaling): 4

Repeated from above (block 2):
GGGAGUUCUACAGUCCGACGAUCGAUUUGGACCUUGGAGUUGAACCAGGGAGCUAGCAAAAGUAAAGCAGACUUGUAAAAUUAUAGCUAUAUGCAGCUGCACAACACAGUCCUACCACUAGCAGCUGUGUUAAAGUAUUUAUACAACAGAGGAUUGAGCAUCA: 0.682 ratio
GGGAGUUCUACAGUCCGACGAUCCAGUCCCCUGGGCUGGGACAGAUUUUUUUUUAACGUCUUGAAACUUAAAUUCUGUGCUUGUAGGAGACUGUAACCUUUUUGUCUUUUUUUUUUUUUUUACACGAAACAACCUCCACCUCCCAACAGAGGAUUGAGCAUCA: 0.771 ratio
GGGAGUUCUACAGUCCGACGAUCUUAUAUGGGCCUCGCAGAGUUGAAGUAAUUGAAGAAGAAACUUCACAAUAAUCUUCAUCUUAGUAUCUCUGACUAGGUGUGGAAUAAAUGUUGUUCGUUGAUCAUUUCUAAACCCCAGAGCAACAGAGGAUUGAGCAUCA: 0.579 ratio
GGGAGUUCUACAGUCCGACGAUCUUCACUGAGUGACAGUAUACCUUCAGUGGCUGAUUCACACUCAAGCCAUUUUUCAGAGUUCAGUUCGGAUAUGGAGAGUAUGAAGACAUCCUGCAGCCAUGGUUCUAGUGACUACCACGCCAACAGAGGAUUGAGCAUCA: 0.263 ratio
